# Experimental data from different studies.
# Compare with care: the assays were run in different laboratories. Values joined by “and” are separate records of one study, mostly repeats; a detail may differ. ± gives the spread as reported.
SMILES,target or system,assay,system,setting,how to read,quantity,result
O=C(Nc1cnccc1Cl)N1CCN(Cc2ccc3c(c2)OC(F)(F)O3)CC1,,,"healthy young women, plasma","oral, 100 mg once daily, day 10",,t1/2,10.9 h
O=c1c(O)c(-c2ccc(O)cc2O)oc2cc(O)cc(O)c12,,,human plasma,"mean, both sexes",,plasma concentration,92.7 nM
CC[C@H]1OC(=O)[C@H](C)[C@@H](O[C@H]2C[C@@](C)(OC)[C@@H](O)[C@H](C)O2)[C@H](C)[C@@H](O[C@@H]2O[C@H](C)C[C@H](N(C)C)[C@H]2O)[C@](C)(O)C[C@@H](C)C(=O)[C@H](C)[C@@H](O)[C@]1(C)O,,starch gel membrane permeability,Gram-negative envelope surrogate,"200 µM, 90 min, pH 7.4",,amount permeated,1.91 nmol
O=C(O)CCC(=O)O.[2H]C([2H])([2H])Oc1cc(C)c2[nH]ccc2c1CN1CC[C@@H](C2CC2)C[C@H]1c1ccc(C(=O)O)cc1,,multiple ascending dose,healthy Chinese subjects,100 mg twice daily,,subjects with lymphopenia,0%
O=C1CC[C@H](N2Cc3cc(N4CCN(CC5CCN(c6ccc([C@@H]7c8ccc(O)cc8CC[C@@H]7c7ccccc7)cc6)CC5)CC4)ccc3C2=O)C(=O)N1,,refers to: Wound,human,"oral, 200 mg, with: dabigatran etexilate 75 mg",,participants with adverse event,4.2%
Cc1cccc(CNC(=O)c2cn(CCNC(=O)c3ccccc3S)c3cc4c(cc3c2=O)OC(F)(F)O4)n1,,,"Sprague-Dawley rat, male, plasma","intramuscular, 3 mg/kg of parent drug",,Tmax,8.83 ± 7.62 h
Cc1c2oc3c(C)ccc(C(=O)N[C@@H]4C(=O)N[C@H](C(C)C)C(=O)N5CCC[C@H]5C(=O)N(C)CC(=O)N(C)[C@@H](C(C)C)C(=O)O[C@@H]4C)c3nc-2c(C(=O)N[C@@H]2C(=O)N[C@H](C(C)C)C(=O)N3CCC[C@H]3C(=O)N(C)CC(=O)N(C)[C@@H](C(C)C)C(=O)O[C@@H]2C)c(N)c1=O,,,"children with cancer, plasma","dose not given, 30 min",,minimum plasma concentration,3.3 µg/L
O=C(O)CCc1ccc(O)cc1O,,,human plasma,mean,,plasma concentration,1520 nM
CC(C)(C)CC(C)(C)c1ccc(O)c(-n2nc3ccccc3n2)c1,,,EpiSkin reconstructed epidermis,"concentration not given, 36 h",,amount in receptor fluid,not detected
CC(C)NCCCC[C@@H]1NC(=O)[C@H](Cc2ccc(O)cc2)NC(=O)[C@H](Cc2ccccc2)NC(=O)CC[C@H](C(=O)N[C@@H](CCCCNC(C)C)C(=O)N[C@@H](CCCCNC(=O)[C@H](CCC(=O)O)NC(=O)[C@H](CCC(=O)O)NC(=O)[C@H](CCC(=O)O)NC(=O)CN2CCN(CC(=O)O)CCN(CC(=O)O)CCN(CC(=O)O)CC2)C(N)=O)NC(=O)CNC(=O)[C@H](Cc2ccc3ccccc3c2)NC(=O)[C@@H](CCCNC(=N)N)NC1=O [gallium-68 labelled],,,"mouse with Daudi xenograft, adrenals","intravenous, 2 h",,tissue uptake,0.21 %ID/g
Cc1c(-c2ccc(N3CCc4cccc(C(=O)Nc5nc6ccccc6s5)c4C3)nc2C(=O)O)cnn1CC12CC3(C)CC(C)(C1)CC(OCCNCC[C@H](O)CO)(C3)C2,,,"beagle dog, anaesthetised","intravenous infusion, 0.1 mg/kg/min, 90 min",reference: baseline,mean arterial pressure change,-1 mmHg
CCOC(=O)[C@@]12C[C@@H]1[C@@H](n1ccc3c(NC)nc(C#Cc4ccc(Cl)s4)nc31)[C@H](O)[C@@H]2O,,,"Sprague-Dawley rat, male, plasma","oral, 1 mg/kg",,AUC extrapolated share,20.5%
Cn1cc(Nc2nccc(-c3ccc4c(c3)CN(C3COC3)CC[C@H]4NC(=O)c3cn(C(C)(C)C)nn3)n2)cn1,,,"human, whole blood","150 mg twice daily, day 14",reference: pre-dose baseline,NK cell count change,-36.8%
CC(C)(C(=O)N1CCOc2c(C#N)cncc2C1)C(F)F,,,"human, both sexes","oral, 10 mg single dose",,subjects with contact dermatitis TEAE,16.7%
O=c1ccc2ccc(O)c(O)c2o1,,,human plasma,"median, both sexes",,plasma concentration,60.9 nM
O=C1NCCc2nc(OCc3cccc(F)c3)ccc21,,modified Irwin test,"Sprague-Dawley rat, male","oral, 100 mg/kg, 4 h",,rectal temperature,36.1 °C
NC1(C(=O)N[C@@H](CCO)c2ccc(Cl)cc2)CCN(c2nc[nH]c3nccc2-3)CC1,,,metastatic CRPC patients,"320 mg b.i.d., any grade, treatment-related, with: enzalutamide 160 mg daily",,incidence of Dysuria,0%
CC(C)n1c(/C=C/C(O)CC(O)CC(=O)O)c(-c2ccc(F)cc2)c2ccccc21 (centres unmarked),COS-7,,,"10 µM, 24 h, 0.1% DMSO, unit not given",reference: vehicle control,necrotic cells,0.76 ± 0.16
CCn1cc(C(=O)O)c(=O)c2cnc(N3CCNCC3)nc21,,starch gel membrane permeability,Gram-negative envelope surrogate,"200 µM, 60 min, pH 7.4",,amount permeated,3.68 nmol
Cc1c(Cl)c(C)[n+]([O-])c(Cl)c1-c1noc(-c2cc(O)c(O)c([N+](=O)[O-])c2)n1,,,healthy Chinese subjects,"oral, 100 mg",,TEAE leading to discontinuation,0%
Cc1ccc(Sc2ccccc2N2CCNCC2)c(C)c1,,refers to: abdominal pain,healthy adult women,"oral, 5 mg daily, 12 days",,participants with TEAE,0%
C=CC(=O)NC1CCN(c2ncc3ncnc(Nc4ccc(Oc5ccc6c(c5)ncn6C)c(C)c4)c3n2)CC1,,refers to: skin disorders (SOC),human male,"oral, dose not given, AEs, treatment-related, on drug, CTCAE",,adverse events incidence,0%
Cc1ccc(C(=O)N(CCCN)C(c2nc3snc(C)c3c(=O)n2Cc2ccccc2)C(C)C)cc1 (centres unmarked),,,human patients,"intravenous, 2 mg/day",,grade ≥3 dysphagia patients,0%
C[C@@H](c1ncncc1F)[C@](O)(Cn1cncn1)c1ccc(F)cc1F,,,human,"oral, 200 mg, drug interaction trial",,drug-related TEAE,9.1%
O=C(O)[C@H]1O[C@@H](Oc2ccc(/C=C/c3cc(O)cc(O)c3)cc2)[C@H](O)[C@@H](O)[C@@H]1O,,,"human, plasma",,,samples above LOQ,95.6%
COc1ccc2[nH]c([S+]([O-])Cc3ncc(C)c(OC)c3C)nc2c1 (centres unmarked),,,"human male, plasma and dried plasma spots","oral, dose not given, 4 h",reference: rifampicin-induced over baseline,R/S ratio change,1.14
CCC(C)n1ncn(-c2ccc(N3CCN(c4ccc(OCC5COC(Cn6cncn6)(c6ccc(Cl)cc6Cl)O5)cc4)CC3)cc2)c1=O (centres unmarked),,,"human, plasma","oral, dose not given, day 15 predose, mean",,trough plasma concentration,147 ng/mL
O=C(O)CCc1ccccc1O,,,human plasma,median,,plasma concentration,701 nM
CC(=O)c1c(C)cc2cc(O)cc(O[C@@H]3O[C@H](CO)[C@@H](O)[C@H](O)[C@H]3O)c2c1O,HepaRG co-cultured with HK-2,MTT,,"266.67 µM, 48 h",reference: untreated control,cell viability,58.6 ± 4.02%
NC(=O)N1c2ccccc2C=Cc2ccccc21,,PAMPA,artificial lipid membrane,30 min,,permeability,68.9 ± 40.6 ×10⁻⁶ cm/s
CC(F)(F)c1nc2nc(CO)cc(Nc3ccc(S(F)(F)(F)(F)F)cc3)n2n1,,LC-MS/MS,"malaria patients, plasma","oral, 250 mg of parent drug",,"Cmax, metabolite",442 ng/mL
CCc1cc(C(=O)NC)c2nccc(N3CCc4c(cc(Cn5ccnc5)cc4-c4cn(C)nc4C(F)(F)F)C3=O)c2c1,,,Sprague Dawley rats,"oral, 100 mg/kg twice daily, 7 days",,cholesterol,2.1 ± 0.48 mmol/L
CNC(=O)c1ccc(-c2cnc3ncc(Cc4ccc5ncccc5c4)n3n2)cc1F,,"CTCAE v4.0, any causality",human gastric cancer patients,"oral, 600 mg twice daily, expansion cohort at RP2D",,back pain incidence (all grades),11%
C[C@@H](O)[C@H]1C(=O)N2C(C(=O)O)=C(SCCN=CN)C[C@H]12,,starch gel membrane permeability,Gram-negative envelope surrogate,"200 µM, 45 min, pH 7.4",,amount permeated,3.13 nmol
O=C(Nc1nc2cccc(-c3ccc(CN4CCS(=O)(=O)CC4)cc3)n2n1)C1CC1,,refers to: paraesthesia,human rheumatoid arthritis patients,"oral, 75 mg once daily, 4 weeks, regardless of relatedness",,treatment-emergent adverse events,0%
O=C(COc1ccc(Cl)cc1)NC12CC(c3nnc([C@H]4C[C@@H](OC(F)(F)F)C4)o3)(C1)C2,,,human both sexes,"oral, 100 mg single dose",,postural dizziness participants,50%
COc1cccc2c1c(O)c(C(=O)N(C)c1ccc(C(F)(F)F)cc1)c(=O)n2C,,,"mouse, CP model, serum","0.154 µmol/kg, 4 weeks",,serum AST,no effect
CCCCOC(=O)N1CCN(C(=O)[C@H](CP(=O)(O)O)NC(=O)c2cc(N3CC[C@H](OC)C3)nc(-c3ccccc3)n2)CC1,,refers to: prothrombin time,"human, plasma","8 mg, 24 h post-dose",,change from baseline,0.01 ± 0.06 INR
CC(C)(Sc1ccncc1-c1ccc(C#N)c2ccccc12)C(=O)O,,,"human, plasma","oral, 2.5 mg once daily, with: febuxostat 10 mg",,AUC(0-24),51 ng·h/mL
COc1ccc2c3c([nH]c2c1)[C@H](CC(C)C)N1C(=O)[C@H](CC(=O)NC(C)C)NC(=O)[C@@H]1C3,,,"wild-type mouse, male, serum","oral, 100 mg/kg, 12 h",,serum concentration,465 nM and 28.9 nM and 1030 nM and 30.4 nM
Cc1cccc(C)c1OCC(=O)N[C@@H](Cc1ccccc1)[C@@H](O)C[C@H](Cc1ccccc1)NC(=O)[C@H](C(C)C)N1CCCNC1=O,,,"Macaca nemestrina, plasma","intravenous, time-averaged",,minimum DcNP-associated fraction,> 87%
Nc1ncn([C@H]2C[C@H](O)[C@@H](CO)O2)c(=O)n1,,,mouse plasma,"1.2 ng/mL, -80 °C, three freeze-thaw cycles, no THU",,mean deviation from nominal,10.3%
CN[C@H](CC(C)C)C(=O)N[C@H]1C(=O)N[C@@H](CC(N)=O)C(=O)N[C@H]2C(=O)N[C@H]3C(=O)N[C@H](C(=O)N[C@H](C(=O)O)c4cc(O)cc(O)c4-c4cc3ccc4O)[C@H](O)c3ccc(c(Cl)c3)Oc3cc2cc(c3O[C@@H]2O[C@H](CO)[C@@H](O)[C@H](O)[C@H]2O[C@H]2C[C@](C)(N)[C@H](O)[C@H](C)O2)Oc2ccc(cc2Cl)[C@H]1O,,starch gel membrane permeability,Gram-negative envelope surrogate,"200 µM, 20 min, pH 7.4",,amount permeated,0.21 nmol
C[C@@H](NC(=O)N1C(=O)[C@H](Cc2ccnc(N)c2)[C@H]1C(=O)O)C1CCCCC1,,UPLC-MS/MS,"healthy adult Chinese volunteers, plasma","continuous intravenous infusion, 1.5 mg/kg/h, day 6 of 5-day infusion, mean",,t1/2,1.43 h
O=C1c2cccc(O)c2C(=O)c2c(O)cc(CO)cc21,HepaRG co-cultured with HK-2,MTT,,"133.33 µM, 48 h",reference: untreated control,cell viability,48.1 ± 1.4%
O=c1c(O)c(-c2ccc(O)c(O)c2)oc2cc(O)cc(O)c12,,,human plasma,"mean, both sexes",,plasma concentration,344 nM
O=C(OC(C(F)(F)F)C(F)(F)F)N1CCN(Cc2cccc(Oc3ccccc3)c2)CC1,,PET blocking study,"rhesus monkey, brain THA","0.01 mg/kg, compound pretreatment, with: [18F]T-401 tracer",,k2,0.04 min⁻¹

# Excerpt of the above:
SMILES,target or system,assay,system,setting,how to read,quantity,result
C=CC(=O)NC1CCN(c2ncc3ncnc(Nc4ccc(Oc5ccc6c(c5)ncn6C)c(C)c4)c3n2)CC1,,refers to: skin disorders (SOC),human male,"oral, dose not given, AEs, treatment-related, on drug, CTCAE",,adverse events incidence,0%
Cc1ccc(C(=O)N(CCCN)C(c2nc3snc(C)c3c(=O)n2Cc2ccccc2)C(C)C)cc1 (centres unmarked),,,human patients,"intravenous, 2 mg/day",,grade ≥3 dysphagia patients,0%
C[C@@H](c1ncncc1F)[C@](O)(Cn1cncn1)c1ccc(F)cc1F,,,human,"oral, 200 mg, drug interaction trial",,drug-related TEAE,9.1%
